# Measured values collected from several papers.
# Every numbered part comes from another study and shows a few of its results, in no order. Several values in a cell are separate wells, animals, samples, runs or records.
# Chain of UniProt Q99720 (whole entry, looked up): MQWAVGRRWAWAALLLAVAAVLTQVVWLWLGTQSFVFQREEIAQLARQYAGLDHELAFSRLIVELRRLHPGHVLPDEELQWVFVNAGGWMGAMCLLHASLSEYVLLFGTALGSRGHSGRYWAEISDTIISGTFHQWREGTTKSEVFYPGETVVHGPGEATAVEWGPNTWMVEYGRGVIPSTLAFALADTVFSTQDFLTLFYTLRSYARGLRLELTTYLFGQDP
# Chain of UniProt P07550 (whole entry, looked up): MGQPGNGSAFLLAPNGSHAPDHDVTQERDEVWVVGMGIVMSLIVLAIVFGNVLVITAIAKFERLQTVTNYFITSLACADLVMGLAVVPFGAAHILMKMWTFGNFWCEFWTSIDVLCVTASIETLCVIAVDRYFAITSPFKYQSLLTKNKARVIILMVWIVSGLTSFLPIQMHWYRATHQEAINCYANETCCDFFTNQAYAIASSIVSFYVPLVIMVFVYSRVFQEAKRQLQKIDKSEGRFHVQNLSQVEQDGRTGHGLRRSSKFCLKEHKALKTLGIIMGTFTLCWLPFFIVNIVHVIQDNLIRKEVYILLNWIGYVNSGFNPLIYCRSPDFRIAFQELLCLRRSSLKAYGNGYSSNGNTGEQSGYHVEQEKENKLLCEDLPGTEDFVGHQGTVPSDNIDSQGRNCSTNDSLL
# Chain of UniProt Q9HAZ1 (whole entry, looked up): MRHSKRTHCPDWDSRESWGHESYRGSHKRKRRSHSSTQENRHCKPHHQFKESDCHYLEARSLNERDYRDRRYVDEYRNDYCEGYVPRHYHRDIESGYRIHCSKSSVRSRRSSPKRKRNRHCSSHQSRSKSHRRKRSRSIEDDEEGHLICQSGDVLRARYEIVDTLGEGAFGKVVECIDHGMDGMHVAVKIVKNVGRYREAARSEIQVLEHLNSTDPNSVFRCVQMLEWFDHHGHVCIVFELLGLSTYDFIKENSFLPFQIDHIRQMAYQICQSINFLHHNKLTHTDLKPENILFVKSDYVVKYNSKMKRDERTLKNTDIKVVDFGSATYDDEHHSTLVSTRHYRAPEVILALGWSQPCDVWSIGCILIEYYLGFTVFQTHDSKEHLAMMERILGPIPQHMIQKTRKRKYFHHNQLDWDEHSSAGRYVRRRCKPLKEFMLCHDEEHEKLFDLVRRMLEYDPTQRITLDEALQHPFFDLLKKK
# Chain of UniProt Q8N568 (whole entry, looked up): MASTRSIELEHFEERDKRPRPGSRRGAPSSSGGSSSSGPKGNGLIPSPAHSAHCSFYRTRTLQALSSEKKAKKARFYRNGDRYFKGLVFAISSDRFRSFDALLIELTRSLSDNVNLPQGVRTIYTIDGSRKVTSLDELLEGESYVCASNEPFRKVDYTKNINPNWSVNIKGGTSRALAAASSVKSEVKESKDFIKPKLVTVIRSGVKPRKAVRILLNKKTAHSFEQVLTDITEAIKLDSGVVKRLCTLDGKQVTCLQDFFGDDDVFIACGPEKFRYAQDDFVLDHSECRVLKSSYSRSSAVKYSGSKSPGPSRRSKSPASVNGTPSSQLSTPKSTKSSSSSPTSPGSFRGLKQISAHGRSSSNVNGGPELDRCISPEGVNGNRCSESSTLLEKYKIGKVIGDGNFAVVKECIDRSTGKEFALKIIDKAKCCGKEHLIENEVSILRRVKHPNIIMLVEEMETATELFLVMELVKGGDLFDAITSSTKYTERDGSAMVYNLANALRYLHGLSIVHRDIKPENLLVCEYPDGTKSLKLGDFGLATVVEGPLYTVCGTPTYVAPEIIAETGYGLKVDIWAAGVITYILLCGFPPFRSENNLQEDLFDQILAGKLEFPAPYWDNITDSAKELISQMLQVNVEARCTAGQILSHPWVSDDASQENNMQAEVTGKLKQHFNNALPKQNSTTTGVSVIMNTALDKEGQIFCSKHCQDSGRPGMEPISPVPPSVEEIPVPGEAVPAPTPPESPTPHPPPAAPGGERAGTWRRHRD
# Chain of UniProt P18089 (whole entry, looked up): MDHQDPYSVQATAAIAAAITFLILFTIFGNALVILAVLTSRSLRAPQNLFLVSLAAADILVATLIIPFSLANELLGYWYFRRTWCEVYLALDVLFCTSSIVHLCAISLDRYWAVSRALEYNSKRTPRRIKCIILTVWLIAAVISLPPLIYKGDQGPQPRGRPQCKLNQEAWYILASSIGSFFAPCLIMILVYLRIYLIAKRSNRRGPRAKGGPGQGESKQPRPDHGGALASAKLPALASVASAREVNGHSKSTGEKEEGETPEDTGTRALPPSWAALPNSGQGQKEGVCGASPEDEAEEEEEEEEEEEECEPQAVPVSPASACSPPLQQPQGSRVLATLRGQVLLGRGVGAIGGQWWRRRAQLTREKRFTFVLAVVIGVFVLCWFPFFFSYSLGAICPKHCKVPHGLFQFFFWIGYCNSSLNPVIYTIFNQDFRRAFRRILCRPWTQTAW
# Chain of UniProt P35368 (whole entry, looked up): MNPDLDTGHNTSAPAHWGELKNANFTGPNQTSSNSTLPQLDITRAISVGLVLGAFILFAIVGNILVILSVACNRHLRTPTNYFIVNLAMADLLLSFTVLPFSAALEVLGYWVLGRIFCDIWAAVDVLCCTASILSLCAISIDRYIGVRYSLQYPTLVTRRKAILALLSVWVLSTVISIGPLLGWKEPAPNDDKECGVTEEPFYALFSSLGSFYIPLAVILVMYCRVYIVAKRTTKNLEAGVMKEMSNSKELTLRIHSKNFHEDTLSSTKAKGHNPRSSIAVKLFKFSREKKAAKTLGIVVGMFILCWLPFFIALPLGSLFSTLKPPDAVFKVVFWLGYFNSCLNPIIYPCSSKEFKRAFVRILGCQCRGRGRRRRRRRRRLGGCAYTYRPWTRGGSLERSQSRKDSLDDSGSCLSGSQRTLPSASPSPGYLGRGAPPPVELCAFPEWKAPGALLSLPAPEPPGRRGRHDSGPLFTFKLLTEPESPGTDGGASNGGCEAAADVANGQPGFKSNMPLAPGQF
# Chain of UniProt P51956 (whole entry, looked up): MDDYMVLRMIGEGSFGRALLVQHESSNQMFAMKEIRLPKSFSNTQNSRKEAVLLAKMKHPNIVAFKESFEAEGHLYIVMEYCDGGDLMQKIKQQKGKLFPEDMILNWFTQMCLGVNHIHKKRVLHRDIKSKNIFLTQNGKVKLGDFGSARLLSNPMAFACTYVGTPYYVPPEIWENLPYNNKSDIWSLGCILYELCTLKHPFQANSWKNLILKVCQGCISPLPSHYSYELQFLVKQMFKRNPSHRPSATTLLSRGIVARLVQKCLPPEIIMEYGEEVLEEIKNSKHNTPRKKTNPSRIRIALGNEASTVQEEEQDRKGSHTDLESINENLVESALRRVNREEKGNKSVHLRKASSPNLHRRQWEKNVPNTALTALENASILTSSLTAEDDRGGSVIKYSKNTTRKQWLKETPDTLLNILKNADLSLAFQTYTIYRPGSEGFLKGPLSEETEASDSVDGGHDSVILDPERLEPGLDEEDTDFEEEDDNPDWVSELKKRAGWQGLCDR
# Chain of UniProt P42681 (whole entry, looked up): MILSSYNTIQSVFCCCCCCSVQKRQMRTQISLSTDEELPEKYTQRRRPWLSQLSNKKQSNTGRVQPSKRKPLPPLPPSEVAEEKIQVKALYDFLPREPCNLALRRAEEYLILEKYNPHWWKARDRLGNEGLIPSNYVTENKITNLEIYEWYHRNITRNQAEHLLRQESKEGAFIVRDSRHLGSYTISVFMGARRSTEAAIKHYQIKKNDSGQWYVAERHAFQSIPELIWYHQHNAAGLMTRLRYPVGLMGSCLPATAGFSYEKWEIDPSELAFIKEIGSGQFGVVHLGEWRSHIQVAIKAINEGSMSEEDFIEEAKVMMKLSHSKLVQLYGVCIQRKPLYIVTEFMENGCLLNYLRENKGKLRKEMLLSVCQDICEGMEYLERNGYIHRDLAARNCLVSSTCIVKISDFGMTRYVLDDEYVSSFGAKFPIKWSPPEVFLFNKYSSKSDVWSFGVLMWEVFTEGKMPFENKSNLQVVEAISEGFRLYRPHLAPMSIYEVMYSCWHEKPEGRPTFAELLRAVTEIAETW
# Chain of UniProt Q6P2M8 (whole entry, looked up): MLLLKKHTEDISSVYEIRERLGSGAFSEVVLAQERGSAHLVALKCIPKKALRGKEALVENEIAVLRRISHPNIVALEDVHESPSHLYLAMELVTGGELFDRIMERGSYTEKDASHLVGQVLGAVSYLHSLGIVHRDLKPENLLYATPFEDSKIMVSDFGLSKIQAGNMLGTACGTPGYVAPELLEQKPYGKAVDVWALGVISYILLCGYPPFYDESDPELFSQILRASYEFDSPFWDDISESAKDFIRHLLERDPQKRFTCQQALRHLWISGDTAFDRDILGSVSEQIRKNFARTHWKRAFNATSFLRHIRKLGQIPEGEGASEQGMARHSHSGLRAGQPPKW
# Chain of UniProt P06493 (whole entry, looked up): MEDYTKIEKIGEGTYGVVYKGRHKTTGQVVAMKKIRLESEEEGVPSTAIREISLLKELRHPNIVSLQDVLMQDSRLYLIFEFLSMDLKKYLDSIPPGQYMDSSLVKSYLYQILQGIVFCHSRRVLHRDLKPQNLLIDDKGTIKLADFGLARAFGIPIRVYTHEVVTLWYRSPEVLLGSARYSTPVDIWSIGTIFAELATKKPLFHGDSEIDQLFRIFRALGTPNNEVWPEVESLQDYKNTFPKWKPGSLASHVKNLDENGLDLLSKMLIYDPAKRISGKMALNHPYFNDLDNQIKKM

# Block 1 — effect on: RNA clamping; method: fluorescence polarization; tested at: concentration not given; setting: mean of two replicates; together with: FAM-labelled poly r(AG)8 RNA
# Target: Eukaryotic initiation factor 4A-I (EIF4A1, Homo sapiens, UniProt P60842)
# Chain of UniProt P60842 (whole entry, looked up): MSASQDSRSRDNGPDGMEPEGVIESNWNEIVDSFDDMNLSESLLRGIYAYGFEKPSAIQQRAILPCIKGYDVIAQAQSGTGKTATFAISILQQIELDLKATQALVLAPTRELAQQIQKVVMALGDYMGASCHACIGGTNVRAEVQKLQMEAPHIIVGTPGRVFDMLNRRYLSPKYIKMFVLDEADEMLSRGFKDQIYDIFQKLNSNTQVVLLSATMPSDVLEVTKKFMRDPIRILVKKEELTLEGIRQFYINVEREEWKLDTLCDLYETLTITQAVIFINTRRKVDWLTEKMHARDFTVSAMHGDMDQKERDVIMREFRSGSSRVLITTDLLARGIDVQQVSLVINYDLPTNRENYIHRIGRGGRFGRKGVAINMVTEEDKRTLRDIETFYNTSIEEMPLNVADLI
SMILES,fluorescence polarization change
CONC(=O)[C@H]1[C@@H](O)[C@@]2(O)c3c(OC)cc(F)cc3O[C@@]2(c2ccc(Br)cc2)[C@@H]1c1ccccc1,81.2 mP
C#CCNC(=O)COc1cc(OC)c2c(c1)O[C@@]1(c3ccc(OC)cc3)[C@H](c3ccccc3)c3c(nc(-c4ccccc4)[nH]c3=O)[C@@]21O,5.7 mP
C#CCCCOC(=O)/C=C/Cn1c(-c2ccccc2)nc2c(c1=O)[C@@H](c1ccccc1)[C@]1(c3ccc(OC)cc3)Oc3cc(OC)cc(OC)c3[C@]21O,12.6 mP
COc1ccc([C@@]23Oc4cc(OC)cc(OC)c4[C@@](O)(C2=O)[C@H](C(=O)N(C)OC)[C@H]3c2ccccc2)cc1,6.4 mP
COC(=O)[C@@H]1[C@@H](c2ccccc2)[C@]2(c3ccc(OC)cc3)Oc3cc(OC)cc(OC)c3[C@@]23OC(Cc2ccccc2)=N[C@@]13O,17.6 mP
COCCN[C@@]12C(=O)[C@H](C(=O)N(C)C)[C@@H](c3ccccc3)[C@]1(c1ccc(OC)cc1)Oc1cc(OC)cc(OC)c12,-5.3 mP
COc1ccc([C@@]23Oc4cc(OC)cc(OC)c4[C@]2(O)c2nc(N4CCOCC4)[nH]c(=O)c2[C@H]3c2ccccc2)cc1,49.6 mP and 58.3 mP
CCOC(=O)[C@H]1[C@@H](O)[C@@]2(O)c3c(OC)cc(OC)cc3O[C@@]2(c2ccc(OC)cc2)[C@@H]1c1ccc(Br)cc1,1.6 mP
COc1cc(OC)c2c(c1)O[C@@]1(c3ccc(C#N)cc3)[C@H](c3ccccc3)[C@@H](CN(C)C)[C@@H](O)[C@@]21O,82.7 mP
COc1ccc([C@@]23Oc4cc(O)cc(OC)c4[C@]2(O)c2nc4n(c(=O)c2[C@H]3c2ccccc2)CCC4)cc1,36.3 mP

# Block 2 — Structure (SMILES): FC(F)(F)c1ccc2c(c1)nc(-c1cccnc1)n2C1CC1; effect on: cell-free assay; tested at: 10 µM
target,inhibition
"SIGMAR1 (Homo sapiens, UniProt Q99720)",16.9%
"ADRB3 (Homo sapiens, UniProt P13945)",-1.88%
"ADRB2 (Homo sapiens, UniProt P07550)",1.56%
"ADRA1B (Homo sapiens, UniProt P35368)",11.7%
"DRD2 (Homo sapiens, UniProt P14416)",-19.8%
"ADRA2B (Homo sapiens, UniProt P18089)",43.3%
"HRH1 (Homo sapiens, UniProt P35367)",9.49%
"CHRM2 (Homo sapiens, UniProt P08172)",2.99%

# Block 3 — effect on: acetyl-histone H4 peptide binding; method: AlphaScreen displacement; tested at: 50 µM
# Target: Bromodomain-containing protein 4, BD1 (BRD4, Homo sapiens, UniProt O60885)
SMILES,inhibition [%]
COc1cccc(C(=O)c2sc(Nc3ccc(F)c(Cl)c3)nc2N)c1,2.8
O=C1Nc2ccccc2C1=Nc1sc2c(c1C(=O)Nc1ccccc1)CCCC2,25.8
CCOC(=O)C1=C(CSc2ccccc2C(=O)O)NC(=O)NC1,10.1
COc1ccc(Nc2nc(N)nc3[nH]cnc23)cc1OC,21.8
N#CC(=C1CCCC1)c1nc2ccccc2s1,4.1
CCOC(=O)c1cnc2oc3ccc(O)cc3c2c1-c1ccccc1,12.6
Nc1nc2ccc([N+](=O)[O-])cc2c(=O)[nH]1,11.6

# Block 4 — Compound: Cc1ccc(S(=O)(=O)/C=C/C#N)cc1; effect on: enzyme activity; action: inhibitor; tested at: 0.5 µM; baseline: control
target,remaining activity
"Cyclin-dependent kinase 1, with cyclin A (CDK1, Homo sapiens, UniProt P06493)",96.7%
"MINK1 (Homo sapiens, UniProt Q8N4C8)",111%
"CLK4 (Homo sapiens, UniProt Q9HAZ1)",89.7%
"TXK (Homo sapiens, UniProt P42681)",103%
"RPS6KA4 (Homo sapiens, UniProt O75676)",82.8%
"DDR2 (Homo sapiens, UniProt Q16832)",96.4%
"DCLK2 (Homo sapiens, UniProt Q8N568)",96.1%
"NEK3 (Homo sapiens, UniProt P51956)",108%
"Cyclin-dependent kinase 9, with cyclin K (CDK9, Homo sapiens, UniProt P50750)",112%
"PAK3 (Homo sapiens, UniProt O75914)",105%
"PNCK (Homo sapiens, UniProt Q6P2M8)",107%
"MARK4 (Homo sapiens, UniProt Q96L34)",99%
"GRK4 (Homo sapiens, UniProt P32298)",96.8%
